Experimental data from different studies.
± gives the spread as reported.

O=C(O)CCC(=O)O.[2H]C([2H])([2H])Oc1cc(C)c2[nH]ccc2c1CN1CC[C@@H](C2CC2)C[C@H]1c1ccc(C(=O)O)cc1
subjects with muscle pain TEAE (multiple ascending dose; healthy Chinese subjects; 100 mg twice daily): 0%

CC(C)n1c(Nc2cccnc2)nc2cnc(Nc3ccc(N4CCN(C)CC4)cc3)nc21
subjects with adverse event (item: antithrombin III antibodies elevated; healthy male subjects; oral, 100 mg, study, together with: gemfibrozil): 50%

CC(C)(C)c1ccc(O)c(CN(Cc2cc(C(C)(C)C)ccc2O)C2CCC(NC(N)=O)CC2)c1 (stereo not drawn)
recovery (mouse plasma; 5 ng/mL, 3 months, 4 °C, refrigerator storage): 99.88 ± 0.86%

O=C(O)CCc1cc(O)cc(O)c1
plasma concentration (human plasma; median): 899 nM

O=C(O)c1cccc(C(=O)O)c1
apparent dissolution enthalpy (Bet/EG deep eutectic solvent; 303.0 K): 15 kcal/mol

COc1cc(/C=C/C(=O)OC2C(O)CC(O)(C(=O)O)CC2O)ccc1O (stereo not drawn)
plasma concentration (human plasma; mean): 22.2 nM

CCc1nc(C(N)=O)c(Nc2ccc(N3CCC(N4CCN(C)CC4)CC3)c(OC)c2)nc1NC1CCOCC1
AUCtau (Japanese patients, plasma; oral, 120 mg, cycle 1 day 28, multiple doses, mean): 13500 ng·h/mL

Cc1ccc(Sc2ccccc2N2CCNCC2)c(C)c1
participants with TEAE (item: ALT increased; healthy adult women; oral, 10 mg daily, 12 days): 0%

CCc1cc(OC)c2nccc(N3CCc4c(cc(Cn5ccnc5)cc4-c4cn(C)nc4C(F)(F)F)C3=O)c2c1
AUC extrapolated fraction (Sprague Dawley rat, male, plasma; intravenous, 3 mg/kg): 0.3%

CC(C)(C(=O)N1CCOc2c(C#N)cncc2C1)C(F)F
subjects with TEAE (item: medical device site dermatitis; human, both sexes; oral, 20 mg twice daily, 14 days, multiple ascending dose): 0%

C[C@H](NC(=O)/C(C#N)=C/c1cccc(Br)n1)c1ccccc1
AUC(all) (LC-MS/MS; patients, plasma; oral, 4 mg/kg, cycle 1 day 1): 93.5 ng·h/mL

CCn1ncc2c1-c1cnc(N)c(c1)O[C@H](C)c1cc(F)ccc1-c1nn(C)nc1C2
Cmin, unbound (Balb/c nude mouse, female, PDX, plasma; po, 5 mg/kg BID, 12 h, 5 days dosing): 34 ± 16 nM

CO[C@@H]1[C@@H](OC(N)=O)[C@@H](O)[C@H](Oc2ccc3c(O)c(NC(=O)c4ccc(O)c(CC=C(C)C)c4)c(=O)oc3c2C)OC1(C)C
amount permeated (starch gel membrane permeability; Gram-negative envelope surrogate; 200 µM, 30 min, pH 7.4): 1.06 nmol

COc1ccc(C2CC(=O)c3c(O)cc(O)cc3O2)cc1O[C@@H]1O[C@H](C(=O)O)[C@@H](O)[C@H](O)[C@H]1O (stereo partly drawn)
plasma concentration (human plasma; mean): 766 nM

C=CC[C@@H]1/C=C(\C)C[C@H](C)C[C@H](OC)[C@H]2O[C@@](O)(C(=O)C(=O)N3CCCC[C@H]3C(=O)O[C@H](/C(C)=C/[C@@H]3CC[C@@H](O)[C@H](OC)C3)[C@H](C)[C@@H](O)CC1=O)[C@H](C)C[C@@H]2OC
plasma creatinine (male Wistar Kyoto rat; intraperitoneal, 0.5 mg/kg/day, day 18): 26 ± 2 µmol/L

CC[C@H](C)[C@H](NC(=O)[C@H](Cc1ccccc1)NC(=O)[C@H](CC(=O)O)NC(=O)[C@H](CCCNC(=N)N)NC(=O)[C@H](C)NC(=O)[C@H](C)NC(=O)[C@H](CC(C)C)NC(=O)[C@H](CC(N)=O)NC(=O)[C@H](CC(=O)O)NC(=O)[C@H](CC(C)C)NC(=O)[C@@H](NC(=O)[C@@H](NC(=O)[C@H](CC(N)=O)NC(=O)[C@H](CCSC)NC(=O)[C@H](CCC(=O)O)NC(=O)[C@H](CC(=O)O)NC(=O)[C@H](CO)NC(=O)[C@H](Cc1ccccc1)NC(=O)[C@H](CO)NC(=O)CNC(=O)[C@H](CC(=O)O)NC(=O)CNC(=O)[C@@H](N)Cc1c[nH]cn1)[C@@H](C)O)[C@@H](C)CC)C(=O)N[C@@H](CC(N)=O)C(=O)N[C@@H](Cc1c[nH]c2ccccc12)C(=O)N[C@@H](CC(C)C)C(=O)N[C@H](C(=O)N[C@@H](CCC(N)=O)C(=O)N[C@H](C(=O)N[C@@H](CCCCN)C(=O)N[C@H](C(=O)N[C@H](C(=O)N[C@@H](CC(=O)O)C(=O)O)[C@@H](C)O)[C@@H](C)CC)[C@@H](C)O)[C@@H](C)CC
typical absorption rate constant (population PK sensitivity analysis; human; fixed allometric exponent): 0.331 h⁻¹

Cc1ccc([C@@H]2O[C@H](CO)[C@@H](O)[C@H](O)[C@H]2O)cc1Cc1ccc(-c2ccc(F)cc2)s1
urinary phosphate excretion change (item: inorganic phosphorus; Japanese type 2 diabetes patients; 200 mg, day 2, 24 h urine collection; baseline: baseline): 109 mg

Cn1cc(Nc2nccc(-c3ccc4c(c3)CN(C3COC3)CC[C@H]4NC(=O)c3cn(C(C)(C)C)nn3)n2)cn1
percent change from baseline (item: NK cell count; human, clinical trial, whole blood; 50 mg twice daily, follow-up): 10.7%

Cc1c2oc3c(C)ccc(C(=O)N[C@@H]4C(=O)N[C@H](C(C)C)C(=O)N5CCC[C@H]5C(=O)N(C)CC(=O)N(C)[C@@H](C(C)C)C(=O)O[C@@H]4C)c3nc-2c(C(=O)N[C@@H]2C(=O)N[C@H](C(C)C)C(=O)N3CCC[C@H]3C(=O)N(C)CC(=O)N(C)[C@@H](C(C)C)C(=O)O[C@@H]2C)c(N)c1=O
median plasma concentration (LC-MS; children with cancer, plasma; dose not given, 6 h): 3.2 µg/L

CCn1cc(C(=O)O)c(=O)c2cnc(N3CCNCC3)nc21
amount permeated (starch gel membrane permeability; Gram-negative envelope surrogate; 200 µM, 45 min, pH 7.4): 2.92 nmol

O=S(=O)(O)Oc1cc([C@H]2Oc3cc(O)cc(O)c3C[C@H]2O)ccc1O
plasma concentration (human plasma; median): 629 nM

O=C(N[C@H](CO)[C@H](O)c1ccc([N+](=O)[O-])cc1)C(Cl)Cl
amount permeated (starch gel membrane permeability; Gram-negative envelope surrogate; 200 µM, 90 min, pH 7.4): 5.81 nmol

C=CCN1CC(=O)N2[C@@H](Cc3ccc(O)cc3F)C(=O)N(Cc3cccc(N4CC(N5CCN(CC)CC5)C4)n3)C[C@@H]2N1C(=O)NCc1ccccc1
treatment-related ALT increased (advanced solid tumour patients; oral, 100 mg twice daily, grade ≥3, dose-escalation): 0%

Cn1nc2c(=O)n(C3CC3)ccc2c1[C@](O)(c1ccc(C(F)(F)F)nc1)C1CC1
CL (rat Sprague-Dawley male, plasma; intravenous, 1 mg/kg): 1.87 ± 0.211 mL/min/kg

O=C(COc1ccc(Cl)cc1)NC12CC(c3nnc([C@H]4C[C@@H](OC(F)(F)F)C4)o3)(C1)C2
postural dizziness participants (human both sexes; oral, 45 mg single dose): 16.7%

O=C(O)c1ccccc1O
plasma concentration (human plasma; mean, both sexes): 5900 nM

OC[C@H]1O[C@@H](c2ccc(Cl)c(Cc3ccc(O[C@H]4CCOC4)cc3)c2)[C@H](O)[C@@H](O)[C@@H]1O
change in Potassium (Japanese type 1 diabetes patients, blood; 2.5 mg, day 28; baseline: baseline): 0 mEq/L

COc1ccc2[nH]c([S+]([O-])Cc3ncc(C)c(OC)c3C)nc2c1 (stereo not drawn)
R/S enantiomer ratio (human male, dried plasma spots; oral, dose not given, 2 h, together with: fluvoxamine and voriconazole): 1.03

COCCOc1cnc2ccn([C@H](C)c3nnc4c(F)cc(-c5cnn(C)c5)cn34)c(=O)c2c1
Cmax (patients, plasma; oral, 200 mg twice daily, day 1, 400 per day): 2600 ng/mL

O=C(Nc1nc2cccc(-c3ccc(CN4CCS(=O)(=O)CC4)cc3)n2n1)C1CC1
treatment-emergent adverse events (item: injection site haematoma; human rheumatoid arthritis patients; oral, 30 mg once daily, 4 weeks, regardless of relatedness): 0%

CNC(=O)c1cccc(-c2ccc(O[C@H]3O[C@H](CO)[C@@H](O)[C@H](O)[C@@H]3O)c(C)c2)c1
AUC(0-all) (male Sprague-Dawley rat, plasma; intravenous, 3 mg/kg, group mean): 521 ng·h/mL

C[C@H]1CN(C(=O)CC#N)[C@]12CCN(c1ncnc3[nH]ccc13)C2
t1/2 (healthy adults, plasma; oral, 12 mg single dose, median): 2.6 h

C[C@@H]1CCO[C@H]2Cn3cc(C(=O)NCc4ccc(F)cc4F)c(=O)c(O)c3C(=O)N12
AUC(0-24) (human paediatric patients, weight sample B to under sample C kg, plasma; oral, 25 mg dispersible tablet, steady state, geometric mean, population PK post-hoc, N 22): 61400 ng·h/mL

CC(=O)O[C@H]1C(=O)[C@@]2(C)[C@H]([C@H](OC(=O)c3ccccc3)[C@]3(O)C[C@H](OC(=O)[C@H](O)[C@@H](NC(=O)c4ccccc4)c4ccccc4)C(C)=C1C3(C)C)[C@]1(OC(C)=O)CO[C@@H]1C[C@@H]2O
adverse event incidence (item: lymphocyte count decreased; patients with advanced solid tumours; intravenous, dose not given, grade 3 and 4, possibly related to drug): 19%

OCc1nc2ccc(NCc3ccc(C(F)(F)F)cc3)cc2[nH]1
tissue/plasma ratio (male Balb/c mice, liver; oral, 10 mg/kg, 6 h; baseline: tissue over plasma): 8.6 ± 0.6

Cc1cc(Nc2cc3ncccc3c(N[C@@H]3C[C@H]4CC[C@@H](C3)N4CCC#N)n2)n[nH]1
sneezing incidence (healthy human subjects; oral, 30 mg, 14 days, multiple ascending dose): 0%

CNCc1ccc(-c2[nH]c3cc(F)cc4c3c2CCNC4=O)cc1
patients with adverse event (item: Cough; human patients; oral, dose not given, all grades, all doses): 19.6%

CN(C(=O)n1cnc(-c2cccnc2)c1)[C@H]1CC[C@H](O)CC1
tissue concentration (rat, cerebellum; oral, 10 mg/kg daily for 5 days, 72 h): 13.1 ± 1 ng/g

CCCCC[C@H](O)CC[C@@H]1[C@H]2Cc3cccc(OCC(=O)O)c3C[C@H]2C[C@H]1O
geometric mean AUC(0-inf) (LC-MS/MS; male Japanese PAH patients, plasma; inhaled, 54 µg): 0.91 ng·h/mL

Cc1cccc(CNC(=O)c2cn(CCNC(=O)c3ccccc3Sc3c([N+](=O)[O-])ncn3C)c3cc4c(cc3c2=O)OC(F)(F)O4)n1
Tmax (Sprague-Dawley rat, male, plasma; intramuscular, 3 mg/kg of parent drug): 4.98 min

C=CC(=O)N1CCC(c2ccc(C(N)=O)c(-c3ccc(Oc4ccccc4)cc3)n2)CC1
incidence of serious cerebral infarction (CTCAE 4.03; patients with relapsed/refractory MCL; oral, dose not given): 0.9%

CCN1/C(=C/C(C)=O)Sc2ccc(F)cc21
heart rate change (cynomolgus monkey; oral, 100 mg/kg, 6 h post-dose; baseline: pre-dose): 95.6 ± 22.3%

Cc1ccc(O)c(O)c1
plasma concentration (human plasma; median): 4620 nM

N#Cc1ccc2c(c1)[C@H]1CCCN(C(=O)c3ccc4[nH]cnc4c3)[C@H]1C2
median ACTH level (human; 10 mg, day 7): 5.1 pmol/L

NC1(C(=O)N[C@@H](CCO)c2ccc(Cl)cc2)CCN(c2nc[nH]c3nccc2-3)CC1
incidence of Dyspepsia (metastatic CRPC patients; dose not given, any grade, treatment-related, all doses, together with: enzalutamide 160 mg daily): 13.3%

Some of these lines once more:
O=C(O)c1ccccc1O
plasma concentration (human plasma; mean, both sexes): 5900 nM

OC[C@H]1O[C@@H](c2ccc(Cl)c(Cc3ccc(O[C@H]4CCOC4)cc3)c2)[C@H](O)[C@@H](O)[C@@H]1O
change in Potassium (Japanese type 1 diabetes patients, blood; 2.5 mg, day 28; baseline: baseline): 0 mEq/L

COc1ccc2[nH]c([S+]([O-])Cc3ncc(C)c(OC)c3C)nc2c1 (stereo not drawn)
R/S enantiomer ratio (human male, dried plasma spots; oral, dose not given, 2 h, together with: fluvoxamine and voriconazole): 1.03
